# Published values pooled from the literature.
# Each numbered part is a random draw from the data of one study; scales do not carry over between parts. Changes are numbered by the printed parent chain.

# Block 1
# Target: RING finger protein unkempt homolog, zinc fingers 1-6, GST-SBP tag (UNK, Homo sapiens, UniProt Q9C0B0, residues 30-357)
# UniProt Q9C0B0, sequence (30-357, looked up): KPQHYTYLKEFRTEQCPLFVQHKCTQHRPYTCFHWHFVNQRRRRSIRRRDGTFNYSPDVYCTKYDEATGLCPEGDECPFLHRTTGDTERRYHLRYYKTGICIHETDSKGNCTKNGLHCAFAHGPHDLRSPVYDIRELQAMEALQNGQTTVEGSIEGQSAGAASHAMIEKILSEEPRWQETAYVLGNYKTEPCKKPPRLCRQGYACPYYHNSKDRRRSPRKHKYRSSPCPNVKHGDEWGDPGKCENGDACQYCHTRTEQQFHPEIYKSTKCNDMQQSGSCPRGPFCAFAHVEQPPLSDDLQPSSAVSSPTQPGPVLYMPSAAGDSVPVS
# Technique: RNA Bind-n-Seq
# Molecule type: RNA
# Medium: in vitro
# Concentration: not given
# Notes: RNA with constant flanks, human and mouse sites, ends assumed
# Reference: input RNA pool
# Reading: higher = stronger binding
# All sequences stand within: GGGAGUUCUACAGUCCGACGAUC … CAACAGAGGAUUGAGCAUCA
Oligonucleotide,bound/input enrichment [ratio]
AGCUGGGCAGGGGGUAACUUUACUGAUUUGGGGGUGGUUUUUAGUUUAAUUUUUCUUUUCUAGCUUCCCAUCGACGGUCAGUGCGCACGUUGUAAUCAGCUGAGGCCAUGUCAGGAGACG,6.73
GACAGUGAAGAAGAGAUUAGAGAAGCAUUCCGUGUGUUUGAUAAGGAUGGCAAUGGCUAUAUUAGUGCAGCAGAGCUUCGCCAUGUGAUGACAAACCUUGGCGAGAAGUUAACAGAUGAA,1.05
CUUCAAUUUUUAAAAGGCAAAACAUUGUUCAAAGCUUAAAGUUUUGAGCUUGAAACAUAGUUUAGAUUUAAACAGUUGUAUGGGAACACAUCCUCUGCUUUAUACAGUUGGAAGUCCUCC,0.283
UCCUCGAUGUCUAAGGGUUGCUUUGUUUUUAAGCCAAACUCCAAAAAGAGAAAGAUCUCUCUGCCAAUAGAGGACUAUUUUAACAAAGGGAAAAAUGAGCCUGAGGACAGUAAGCUUCGA,0.138
UUAUUUGCGCAUUUCAAGAAGAACAACCUAACUCCAGAUAUCUACCUAAUUGAUUGGAUCUUUACCUUAUAUAGUAAAUCUCUGCCCCUCGACCUGGCCUGUCGUAUCUGGGACGUGUUC,0.57
UCAAGGCUGACAGUGACACUAAUGAAACAUGAUAUCAGGAAAAAUGUAAUAAGCCAUCUGGUAAGUUUUCUUAAAGGAUGUUGUUAAGAAGUCCAUCUAAAAACAUGUCUAGACUUUUUU,0.491
GGGUGGUGGGUGUGUGUGUGUGUGUGUGUGUGUGUGUGUGUGUGUGUGUUUGGCUGUGGGUUAGUUGUGCCGUUCUGCUGGAACACCGUGGGAAGGCAGUAGACGCGGGCAGUCAGCUAG,0.67
AAAAGAGUGGUAAUUUUAUAAAUGCUUAUUUAUGUUAUAAAAUGGAGAUCAGAAAAAAAUUCUUUUUGCACUUUGGCCUAUCCAGUAUCUUAUUUAUUCUCUAGAUAAGCUAGGAUAUUA,0.633

# Block 2
# Target: Histone acetyltransferase KAT6A, winged helix 1, GST fusion (KAT6A, Homo sapiens, UniProt Q92794, residues 1-85)
# Technique: protein binding microarray
# Molecule type: double-stranded DNA, one strand shown
# Medium: in vitro
# Concentration: not given
# Notes: 8-mer, flanks averaged, mean of 2 arrays, mostly near background
# Reference: not given
# Reading: higher = stronger binding
# Residues (chain): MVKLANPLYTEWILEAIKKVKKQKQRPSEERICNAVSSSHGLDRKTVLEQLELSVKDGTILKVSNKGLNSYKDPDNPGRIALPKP
Oligonucleotide,E-score
CAGAGCAC,-0.129
GCCCACTA,-0.27
AGTATAAC,0.0217
AAATTCTG,-0.0559
CATCATAC,-0.105
AAGTTCCA,-0.17
GCAAGGAA,-0.103
GACCAGAC,-0.312
AAATCGCC,0.0798
CGGAGCCA,0.105
GAGCGTCC,0.0782
ATACGTCC,0.0854
CCTGGACG,-0.0153
AGTAAGTG,-0.0992
CGGGGACG,0.228
AAAAAACC,-0.133
ATTGCAGG,-0.093
CGCTTTGA,0.136
GGTGAGTA,-0.163
TCATGCGA,0.0302
ACACGCAA,0.0667
CATGTACA,-0.108
CCCCACCG,0.239
GGTCCCTA,0.0823
AATACTCC,-0.0911

# Block 3
# Target: RNA binding protein fox-1 homolog 2, RRM domain, GST-SBP tag (RBFOX2, Homo sapiens, UniProt O43251-10, residues 100-194)
# Technique: RNA Bind-n-Seq
# Molecule type: RNA
# Medium: in vitro
# Concentration: 365 nM
# Notes: natural RNA segment, single round, ends assumed
# Reference: no-protein control
# Reading: higher = stronger binding
# All sequences stand within: GGGAGUUCUACAGUCCGACGAUC … UGGAAUUCUCGGGUGCCAA
# Construct (chain): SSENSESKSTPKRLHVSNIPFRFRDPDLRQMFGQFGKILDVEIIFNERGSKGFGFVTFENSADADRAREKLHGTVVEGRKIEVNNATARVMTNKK
Oligonucleotide,RBNS enrichment (R)
UCUCCCUGCUUUGCUGUAUGGUGACCCCUAAUCCGCUUCUCUGGGCUCAGAUCUGUCCAAGGGCGGAGGCAGGUGGUAUUGAAAAGGAAACGAAUCCUUGAGAGGAGCAC,0.584
UAUGGAAUUUUCAUUGAGUAUGUUUAAAUUAUUGGCUUGUCUACUAAUACACAUCUGCUUCAAAAUGAACAUAUUUCAUAAAAUUGGCAUCAAUUUUAAUGACGCUCCUG,0.272
UCCCAAAGUGCUGGGAUUACAGGCGCAAGCCACCCAGCCCAGCUUCUUUCCAUUCCUUGAUAGGCGAGUAUUCCAAAGCUGGUAUCGUAGCUGCCCUAAUGUUGCAUAUU,0.347
AGCCUGUCUGCCAAAUCCAGUGGAAACAAGUGCAUAGAUGUGAAUUGGUUUUUAGGGGCCCCACUUCCCAAUUCAUUAGGUAUGACUGUGGAAAUACAGACAAGGAUCUU,0.647
UAUAAACCCUGUAUGUGUUUAUAUGUGCUUCACAGAGUUCGUGUCAGGCUCAAAGGAGAUAUGUAUAAGAAAGUGGUUUGUAAAUUAUGUUCCAUUUCAUAAAUAGACAC,1.39
ACCUGAAUCUGUGCAUUUUGUGCCUUAUUCAUGAGAAUGAUAGAAGUACUAAAAUCUGUCAAGUGUUUUCAGUAUAGCACAUUAUUUACUGAGUGCCAGUUGUAAAUGUU,0.537
GGGCACGCCUGCCCAGCCUCGCAUGCCAGAGCCUGGGGCAUCCCAGAGCCCAGGGCAUCCCAUGGGGGUGCUGCAGCCAGGAGGAGAGGAAAGGACAUGGGUAGCAAUUC,1.85
AACAUGCUUAGUAGUUUUUAUACUAAUCAAAUGAAUUAUCACAGCACCUAGACAAUAACUUAGUUUUGCAUGCUUACAUUGGUCAUCCUUUUUAUGUACAUCAUUAAUCU,1.25

# Block 4
# Target: PABPC1L2, full length, GST fusion (mouse, UniProt A0ABA7IW68)
# Technique: RNAcompete
# Molecule type: RNA
# Medium: in vitro
# Concentration: 20 nM
# Notes: 7-mer, probes averaged, single round
# Reference: mean of 7-mers
# Reading: higher = stronger binding
# Residues (chain): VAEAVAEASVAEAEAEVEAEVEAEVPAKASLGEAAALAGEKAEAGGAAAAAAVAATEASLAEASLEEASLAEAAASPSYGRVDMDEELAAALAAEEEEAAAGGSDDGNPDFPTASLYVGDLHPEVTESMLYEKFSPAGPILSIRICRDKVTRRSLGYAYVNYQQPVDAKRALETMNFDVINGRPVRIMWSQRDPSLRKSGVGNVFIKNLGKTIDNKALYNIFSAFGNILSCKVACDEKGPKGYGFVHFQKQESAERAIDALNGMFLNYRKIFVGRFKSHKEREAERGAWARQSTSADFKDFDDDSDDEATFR
Oligonucleotide,7-mer Z-score
GCUGCAG,-0.219
UUCACGC,-0.344
CACACCA,-0.148
GUUGAGC,-0.255
AGAGACG,0.195
UGCAUCA,-0.215
CGUUCUU,-0.347
UAUUUCU,-0.402
AUACCUA,-0.0482
AGAUAAU,-0.0373
GCACAAU,-0.0373
GUUCUAA,-0.146
GGGCGCG,0.0932
CUAGUUU,-0.478
AAUGAGC,-0.0826
AGCAAGG,0.234
AGUAAAU,0.35
AAUUAUU,0.149
CUGGGUG,0.0768
GCUCAAA,0.321
CAGGAUC,0.0642
UCCUGUU,-0.465
UCCCGUG,-0.335
UGGCUAU,-0.0899
AAUUACC,0.017

# Block 5
# Target: CCNE2, cyclin fold, Cln2 fusion (human)
# Technique: yeast growth competition, sequencing
# Medium: yeast
# Notes: weak parent motif
# Reference: not given
# Reading: higher = stronger binding
# Starting sequence: HIRA docking peptide (human); SLSKRKLELEVET
Variant,normalised enrichment score
SLSKRKLALEVET [E8A],0.566
SLSKRKLELEAET [V11A],0.544
SASKRKLELEVET [L2A],-0.209
SLSKAKLELEVET [R5A],-0.668
SLSKRKAELEVET [L7A],-0.752
SLSKKKLELEVET [R5K],0.135
SLAKRKLELEVET [S3A],-0.836

# A few entries again (block 1):
Oligonucleotide,bound/input enrichment [ratio]
AAAAGAGUGGUAAUUUUAUAAAUGCUUAUUUAUGUUAUAAAAUGGAGAUCAGAAAAAAAUUCUUUUUGCACUUUGGCCUAUCCAGUAUCUUAUUUAUUCUCUAGAUAAGCUAGGAUAUUA,0.633
UUAUUUGCGCAUUUCAAGAAGAACAACCUAACUCCAGAUAUCUACCUAAUUGAUUGGAUCUUUACCUUAUAUAGUAAAUCUCUGCCCCUCGACCUGGCCUGUCGUAUCUGGGACGUGUUC,0.57
GACAGUGAAGAAGAGAUUAGAGAAGCAUUCCGUGUGUUUGAUAAGGAUGGCAAUGGCUAUAUUAGUGCAGCAGAGCUUCGCCAUGUGAUGACAAACCUUGGCGAGAAGUUAACAGAUGAA,1.05
GGGUGGUGGGUGUGUGUGUGUGUGUGUGUGUGUGUGUGUGUGUGUGUGUUUGGCUGUGGGUUAGUUGUGCCGUUCUGCUGGAACACCGUGGGAAGGCAGUAGACGCGGGCAGUCAGCUAG,0.67
UCCUCGAUGUCUAAGGGUUGCUUUGUUUUUAAGCCAAACUCCAAAAAGAGAAAGAUCUCUCUGCCAAUAGAGGACUAUUUUAACAAAGGGAAAAAUGAGCCUGAGGACAGUAAGCUUCGA,0.138
UCAAGGCUGACAGUGACACUAAUGAAACAUGAUAUCAGGAAAAAUGUAAUAAGCCAUCUGGUAAGUUUUCUUAAAGGAUGUUGUUAAGAAGUCCAUCUAAAAACAUGUCUAGACUUUUUU,0.491
CUUCAAUUUUUAAAAGGCAAAACAUUGUUCAAAGCUUAAAGUUUUGAGCUUGAAACAUAGUUUAGAUUUAAACAGUUGUAUGGGAACACAUCCUCUGCUUUAUACAGUUGGAAGUCCUCC,0.283
AGCUGGGCAGGGGGUAACUUUACUGAUUUGGGGGUGGUUUUUAGUUUAAUUUUUCUUUUCUAGCUUCCCAUCGACGGUCAGUGCGCACGUUGUAAUCAGCUGAGGCCAUGUCAGGAGACG,6.73
